Results collected from several papers.
A part holds a random share of what one study measured. Changes are numbered by the printed parent chain.

Block 1
Target: Protein max, full length (MAX, Homo sapiens, UniProt P61244-2, residues 1-151)
Method: protein-binding microarray
Form: double-stranded DNA, one strand shown
Medium: in vitro
Tested at: not given
Setting: k-mer, scored over probes, only values ≥0.25
Reading: higher = stronger binding
Measurement: E-score
ACCTCGTG: 0.476
GTGCGTGA: 0.33
ACACAGCA: 0.265
GCGCGCGC: 0.286
ACGCCCCG: 0.268
ATGCGTAG: 0.273
CCACCCAC: 0.282
GCTGGCAC: 0.252
AGTACATG: 0.275
ATGTGTGG: 0.299

Block 2
Target: CCNE1, cyclin fold, Cln2 fusion (human)
Method: yeast growth competition, sequencing
Medium: yeast
Setting: strong parent motif
Baseline: not given
Reading: higher = stronger binding
Measurement: normalised enrichment score
Starting sequence: PKN2 docking peptide (human); VSAVRKLDFSDTM; partner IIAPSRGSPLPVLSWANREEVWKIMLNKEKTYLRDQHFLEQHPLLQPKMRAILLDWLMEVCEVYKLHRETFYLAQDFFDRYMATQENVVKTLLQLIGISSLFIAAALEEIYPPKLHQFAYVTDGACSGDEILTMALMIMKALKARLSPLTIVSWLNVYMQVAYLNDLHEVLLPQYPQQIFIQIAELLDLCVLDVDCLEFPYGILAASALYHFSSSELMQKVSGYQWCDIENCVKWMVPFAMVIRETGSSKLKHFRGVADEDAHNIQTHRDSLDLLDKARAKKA
VSAVRKLDFSRTM [D11R]: 4.13
VSALRKLDFSDTM [V4L]: 1.32
VSAFRKLDFSDTM [V4F]: 4.27
VSACRKLDFSDTM [V4C]: 5.54
VSAVRKPDFSDTM [L7P]: 0.381
VSAVRKLDCSDTM [F9C]: 0.0732
VSAVCKLDFSDTM [R5C]: 1.47
VSWVRKLDFSDTM [A3W]: 4.84
VSAVRKLDFKDTM [S10K]: 4.5
VSAVRKLGFSDTM [D8G]: 1.16

Block 3
Target: RNA binding protein fox-1 homolog 2, RRM domain, GST-SBP tag (RBFOX2, Homo sapiens, UniProt O43251-10, residues 100-194)
Method: RNA Bind-n-Seq
Form: RNA
Medium: in vitro
Tested at: 365 nM
Setting: natural RNA segment, single round, ends assumed
Baseline: no-protein control
Reading: higher = stronger binding
Measurement: RBNS enrichment (R)
Constant ends, left off below: GGGAGUUCUACAGUCCGACGAUC … UGGAAUUCUCGGGUGCCAA
Residues (chain): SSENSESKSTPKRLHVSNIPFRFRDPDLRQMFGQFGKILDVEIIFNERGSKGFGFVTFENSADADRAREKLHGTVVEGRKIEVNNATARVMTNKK
AGAAUAAGUCACAUUGGUUCCAUGGCCACAAACCAUUCAGAUCAGCCACUUGCUGACCCUGGUUCUUAAGGACACAUGACAUUAGUCCAAUCUUUCAAAAUCUUGUCUUA: 0.26
UCACUGUUUCUGCCAGUCACAUGCUCUUCCUGUAUGAGUGACACUGCCGUGCUUUCCUCCAGUUAUCCUUUGCAUUAACUACGUGGGAACUCUUGCAGGCUAUAUAUGUG: 0.493
UAAAAUUUCCCCCAUGGAAAUCACUCUCCUGUUGACUAUUUCCAGAGCUCUAGGUGUUUAGGCAGCGUGUGGUGUCUGAGAGGCCAUAGCGCCAUCAUGGGCUGAUUUUU: 0.447
GUGAGGAGUUUCCUACCAGUUCACUCCAGUGCCAUUGUCUUUAUAUGAACGUAGUGUAGAGAAGCUGCCCUCCUCUUCCAUGGUAGCGCUCAAAGCCCUAAUGGAAGUUU: 0.302
AAGCAGCAUUCUGCCUGAAGCAGGUAGAAGGCUUUGCUGCUCAUGGAAGCUGGUAGGGAACUUAAAAGGCAUGGGAGGGAGGACUGGACAGUGGUCGCUCCGGUGGGUAA: 1.29
UCAGUGCCUUGGAGCAGAAAGCCAGGGUCCUGAGUGGCUGAAAUAAAAGCCUCUGGUGGAACCUGCAGCGCUUUCCUUCCUUUCUUUACCGAAAAGAAGUCUUUCUUGUA: 0.267
CGACAGUGAAAAAGCUCUACUUCUACGCUGACCCAGGGAGGAAACACUAGGACCCUGUUGUAUCCUCAACUGCAAGUUUCUGGACUAGUCUCCCAACGUUUGCCUCCCAA: 0.33
CAUUUAGGCAUGAGCUCUUGGCAGGAGUGGGCUCUGAGCAGGUGUCAUAUUCAUUCUUUACAAACCAUAGAGAAAUAAUUUCAUCCCCCAACUGUAGUAAUUGUUACAAU: 0.85

Single results of other studies
PhoQ, residues 284 288 289 292 302 303 SACGEM — fold induction (PhoP, residues 12 14 15 18 19 NHFIF (Escherichia coli, UniProt P23836); Sort-seq, item: YFP reporter; E. coli; PhoQ-PhoP variant library, added: 10 µM Mg2+; baseline: high Mg2+ state, higher = stronger signaling): 19.8
